Published values of several laboratories.
Each line is one published result; not all experiments were run side by side.
Read-out: metabolic stability
Medium: liver microsomes

Compound | system | conditions | microsomal CLint [µL/min/mg]
O=C(C1CCN(c2nnnn2-c2ccccc2)CC1)N1CCOc2ccccc21 | human | 1 µM | 98
NC[C@@H](C(=O)Nc1ccc(-c2cn[nH]c2)cc1)c1ccccc1 | human | – | 8.56
CNC(=O)C1CCN(c2ccccc2NC(=O)c2ccc(-c3c(C)ccc4[nH]ncc34)c(C)c2)CC1 | human | 2 µM | 18
NC(=O)c1c(F)ccc(OCc2nc3cc(Cl)cnc3s2)c1F | human | 10 µM | 7.2
CCCCCCCCN(CCC(=O)Nc1ccccc1)C(=O)c1ccccn1 | male human | 5 µM | 40
C[N+]1(CC(=O)OC2CCCCCCCCCCC2)CCCCC1 | human | – | 404
CC12CC3CC(C)(C1)CC(NC(=O)NC1CCC(Oc4ccc(C(=O)O)cc4)CC1)(C3)C2 (stereo not shown) | human | – | 84
CNC(=O)c1cc(C)ccc1NC(=O)c1ccc(-c2c(C)ccc3[nH]ncc23)c(C)c1 | human | 2 µM | 3
CCn1cc(C(=O)NCCNCCO)c(=O)c2cc(OCc3ccc(F)cc3)c(Cl)cc21 | human | 1 µM | < 11.6
CC1=N[C@H](C)Cc2c(-c3ccc(C)cc3)ccc(O)c21 | human | 1 µM | 28.2
CCN(c1nc(N[C@H](CC(N)=O)C(=O)NC)nc(N2CCN(c3ccccc3C#N)CC2)n1)C1CCCCC1 | human | – | 22
O=C(C1CCN(c2nnnn2-c2ccccc2)CC1)N1CCCc2ccccc21 | human | 1 µM | > 578
O=C(NCCNCCO)c1cn(Cc2ccc(F)cc2)c2cc(Cl)c(OCc3ccc(C(F)(F)F)cc3)cc2c1=O | human | 1 µM | < 11.6
CNC(=O)C1CCN(c2cc(C)ccc2NC(=O)c2ccc(-c3cc(O)ccc3C)c(C)c2)CC1 | human | 2 µM | 12
Cc1ccc(N2C(=O)c3ccccc3NC23C(=O)N(C)c2ccc(Br)cc23)cc1 (stereo not shown) | human | – | > 300
COc1cncc(-c2cc(F)cc(CNC(=O)c3cc(N4CC[C@@](C#N)(C5CC5)C4=O)cc(C)n3)c2)c1 | human | 0.5 µM | 249
CC12CC3(C)CC(C)(C1)CC(NC(=O)NC1CCC(Oc4ccc(C(=O)O)cc4)CC1)(C2)C3 (stereo not shown) | human | – | 196
Cc1cc(N2CCC(C#N)(C3(C)CC3)C2=O)cc(C(=O)NCc2cc(F)cc(-c3cnn(C)c3)c2)n1 (racemic) | human | 0.5 µM | 55
O=C(NCCNCCO)c1cn(Cc2ccccc2)c2c(Cl)c(OCc3ccc(C(F)(F)F)cc3)c(Cl)cc2c1=O | human | 1 µM | < 11.6

Excerpt of the above:
Compound | system | conditions | microsomal CLint [µL/min/mg]
CNC(=O)C1CCN(c2ccccc2NC(=O)c2ccc(-c3c(C)ccc4[nH]ncc34)c(C)c2)CC1 | human | 2 µM | 18
